Assay results collected from several papers.
Numbered parts are unrelated; each lists some results of a single study.

Study 1 — read-out: enzyme activity; action: inhibitor; technique: radiometric
Target: crk3 (Leishmania mexicana, UniProt O15851)
SMILES	IC50 [nM]
Cc1cccc(C)c1-c1ccc2nc(NC(=O)C3CCCCC3)nn2c1	19000
O=C(Nc1nc2ccc(-c3ccc(O)cc3)cn2n1)C1CCCCC1	120
Cc1cccc(-c2ccc3nc(NC(=O)CCc4ccccc4)nn3c2)c1	30

Study 2 — action: agonist; setting: no glutamate
Target: Metabotropic glutamate receptor 2 (GRM2, Homo sapiens, UniProt Q14416)
UniProt Q14416, sequence (whole entry, looked up): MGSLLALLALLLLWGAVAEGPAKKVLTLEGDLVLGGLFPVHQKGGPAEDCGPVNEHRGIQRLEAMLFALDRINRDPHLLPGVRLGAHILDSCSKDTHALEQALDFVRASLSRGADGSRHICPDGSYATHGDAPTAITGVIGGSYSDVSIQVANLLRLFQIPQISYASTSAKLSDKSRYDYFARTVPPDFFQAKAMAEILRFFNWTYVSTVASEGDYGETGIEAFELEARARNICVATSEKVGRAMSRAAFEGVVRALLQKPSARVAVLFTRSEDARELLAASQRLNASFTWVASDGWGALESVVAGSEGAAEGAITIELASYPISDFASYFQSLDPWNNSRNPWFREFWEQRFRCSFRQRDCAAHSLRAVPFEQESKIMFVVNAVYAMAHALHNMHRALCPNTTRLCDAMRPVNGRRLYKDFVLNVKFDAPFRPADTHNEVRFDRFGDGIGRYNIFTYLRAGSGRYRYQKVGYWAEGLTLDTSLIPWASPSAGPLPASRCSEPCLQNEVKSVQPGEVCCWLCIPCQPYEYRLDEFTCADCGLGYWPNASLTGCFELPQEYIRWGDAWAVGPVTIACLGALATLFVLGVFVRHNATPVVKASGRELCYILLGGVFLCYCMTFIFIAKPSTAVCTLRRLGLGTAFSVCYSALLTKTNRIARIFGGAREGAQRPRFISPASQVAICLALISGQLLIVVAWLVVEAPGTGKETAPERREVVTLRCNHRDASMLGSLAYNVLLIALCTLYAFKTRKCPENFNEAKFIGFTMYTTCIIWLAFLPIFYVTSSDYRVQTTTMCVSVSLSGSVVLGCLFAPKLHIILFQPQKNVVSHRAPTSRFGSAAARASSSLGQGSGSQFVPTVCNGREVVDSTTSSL
SMILES	EC50
N#Cc1c(-c2ccc(OCC3CC3)c(Cl)c2)ccn2c(CC(F)(F)F)cnc12	1700 nM
CCOCc1nnc2c(C(F)(F)F)c(-c3ccc4[nH]ccc4c3)ccn12	1740 nM
COc1ccc(CNc2ccc(-c3ccn4c(CC5CC5)nnc4c3C(F)(F)F)cc2F)cn1	141 nM
Clc1c(-c2ccc(Oc3ccccc3)cc2)ccn2c(CC3CC3)nnc12	240 nM

Single results of other studies
Compound	tested on	assay	system	conditions	scale	quantity	result
O=C(O)COc1ccc(Br)cc1/C=N/NC(=O)c1ccc(Cl)cc1		refers to: latency to stage 3	male mice, pilocarpine-induced seizures	oral, 20 mg/kg, dosed 30 min before pilocarpine, together with: pilocarpine 300 mg/kg i.p.	reference: pilocarpine vehicle group	seizure latency increase	137%
O=C1Nc2ccc(S(=O)(=O)Nc3ccccc3)cc2C1=C1CCCC1	RAW264.7	refers to: IL-1β		concentration not given, together with: LPS 100 ng/mL, 24 h		mRNA level	decreased
O=C(O)COc1ccc(Br)cc1C=NNC(=O)Cc1ccccc1 (mixture of isomers)			mouse, PTZ-induced seizure	oral, 20 mg/kg, 0.5 h, together with: PTZ 85 mg/kg intraperitoneal		protected animals	100%
Cc1ccc(C(=O)N/N=C/c2cc(Br)ccc2OCC(=O)O)cc1		refers to: latency to stage 3	male mice, pilocarpine-induced seizures	oral, 20 mg/kg, dosed 30 min before pilocarpine, together with: pilocarpine 300 mg/kg i.p.	reference: pilocarpine vehicle group	seizure latency increase	117%
Cc1ccc(NCC(=O)N/N=C/c2cc(Br)ccc2OCC(=O)O)cc1			mouse, PTZ-induced seizures	oral, 20 mg/kg	reference: valproic acid 300 mg/kg	relative protection	66.7%

Excerpt of the above (study 2):
SMILES	EC50
CCOCc1nnc2c(C(F)(F)F)c(-c3ccc4[nH]ccc4c3)ccn12	1740 nM
